Published values gathered from unrelated publications.
Each line is one published result; not all experiments were run side by side. Values joined by “and” are separate records of one study, mostly repeats; a detail may differ. ± marks the error that the study gave.
Tumor necrosis factor receptor superfamily member 9/Nectin-4: Tumor necrosis factor receptor superfamily member 9/Nectin-4 (Homo sapiens, UniProt Q07011+Q96NY8)
Sequence of UniProt Q07011 (whole entry, looked up): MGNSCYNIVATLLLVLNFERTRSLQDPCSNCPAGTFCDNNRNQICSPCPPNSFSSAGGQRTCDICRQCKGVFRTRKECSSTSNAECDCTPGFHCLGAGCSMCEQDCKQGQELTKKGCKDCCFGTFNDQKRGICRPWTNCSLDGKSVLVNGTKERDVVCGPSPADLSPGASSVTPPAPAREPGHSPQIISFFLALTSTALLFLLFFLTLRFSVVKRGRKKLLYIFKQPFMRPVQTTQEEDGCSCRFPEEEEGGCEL
Sequence of UniProt Q96NY8 (whole entry, looked up): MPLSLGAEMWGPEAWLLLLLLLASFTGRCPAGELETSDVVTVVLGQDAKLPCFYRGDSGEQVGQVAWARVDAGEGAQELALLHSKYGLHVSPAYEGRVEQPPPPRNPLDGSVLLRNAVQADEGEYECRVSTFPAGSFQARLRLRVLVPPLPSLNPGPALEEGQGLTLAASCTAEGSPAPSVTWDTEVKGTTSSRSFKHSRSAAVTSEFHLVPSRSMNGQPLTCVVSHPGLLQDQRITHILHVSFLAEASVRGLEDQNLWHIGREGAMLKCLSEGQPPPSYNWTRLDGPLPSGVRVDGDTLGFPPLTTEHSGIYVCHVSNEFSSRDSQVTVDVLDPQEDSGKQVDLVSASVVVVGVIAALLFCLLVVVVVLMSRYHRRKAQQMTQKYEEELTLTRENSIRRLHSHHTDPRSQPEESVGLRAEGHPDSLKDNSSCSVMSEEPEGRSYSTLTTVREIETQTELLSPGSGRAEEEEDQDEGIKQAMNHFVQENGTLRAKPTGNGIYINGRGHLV
NR4A1: Nuclear receptor subfamily 4 group A member 1 (NR4A1, Homo sapiens, UniProt P22736)
Sequence of UniProt P22736 (whole entry, looked up): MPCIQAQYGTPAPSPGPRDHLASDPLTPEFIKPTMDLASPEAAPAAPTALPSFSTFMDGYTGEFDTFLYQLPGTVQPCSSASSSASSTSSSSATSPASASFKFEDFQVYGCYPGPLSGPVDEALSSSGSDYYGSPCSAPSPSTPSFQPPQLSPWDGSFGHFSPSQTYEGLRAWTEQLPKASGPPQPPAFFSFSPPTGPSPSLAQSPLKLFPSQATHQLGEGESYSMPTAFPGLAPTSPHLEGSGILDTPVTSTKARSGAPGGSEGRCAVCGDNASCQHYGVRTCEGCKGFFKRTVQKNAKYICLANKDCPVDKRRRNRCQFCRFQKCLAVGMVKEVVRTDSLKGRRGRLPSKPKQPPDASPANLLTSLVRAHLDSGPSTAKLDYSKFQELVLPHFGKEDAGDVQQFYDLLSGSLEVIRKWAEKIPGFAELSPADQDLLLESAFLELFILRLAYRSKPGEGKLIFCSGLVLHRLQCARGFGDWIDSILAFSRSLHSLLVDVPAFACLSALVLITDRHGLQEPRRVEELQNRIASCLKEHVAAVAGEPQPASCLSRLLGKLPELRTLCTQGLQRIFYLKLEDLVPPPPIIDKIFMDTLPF
TRPV1: Transient receptor potential cation channel subfamily V member 1 (TRPV1, Homo sapiens, UniProt Q8NER1)
Sequence of UniProt Q8NER1 (whole entry, looked up): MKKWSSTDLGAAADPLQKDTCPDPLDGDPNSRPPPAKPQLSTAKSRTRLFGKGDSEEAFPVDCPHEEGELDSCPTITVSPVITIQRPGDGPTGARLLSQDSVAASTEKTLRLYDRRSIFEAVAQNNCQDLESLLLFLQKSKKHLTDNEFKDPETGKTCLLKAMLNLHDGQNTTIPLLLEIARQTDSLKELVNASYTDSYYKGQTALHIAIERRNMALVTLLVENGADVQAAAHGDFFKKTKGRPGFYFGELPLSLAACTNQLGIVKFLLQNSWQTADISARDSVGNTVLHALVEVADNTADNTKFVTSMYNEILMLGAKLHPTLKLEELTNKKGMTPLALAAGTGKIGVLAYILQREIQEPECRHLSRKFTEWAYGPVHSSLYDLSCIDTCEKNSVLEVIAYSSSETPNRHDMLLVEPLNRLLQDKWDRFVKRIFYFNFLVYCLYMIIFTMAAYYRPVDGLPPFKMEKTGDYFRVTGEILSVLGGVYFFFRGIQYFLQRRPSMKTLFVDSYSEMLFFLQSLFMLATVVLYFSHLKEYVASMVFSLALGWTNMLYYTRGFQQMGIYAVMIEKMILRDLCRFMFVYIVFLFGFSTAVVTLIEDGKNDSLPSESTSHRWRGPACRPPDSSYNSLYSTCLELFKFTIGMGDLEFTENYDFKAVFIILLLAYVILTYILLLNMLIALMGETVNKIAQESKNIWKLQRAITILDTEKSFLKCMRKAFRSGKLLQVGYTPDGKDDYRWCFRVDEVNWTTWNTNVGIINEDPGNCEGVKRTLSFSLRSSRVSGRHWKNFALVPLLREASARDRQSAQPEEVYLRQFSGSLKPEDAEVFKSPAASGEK
T1: ssDNA, aptamer; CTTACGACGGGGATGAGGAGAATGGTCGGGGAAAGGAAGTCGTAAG
Sequence of UniProt O75762 (whole entry, looked up): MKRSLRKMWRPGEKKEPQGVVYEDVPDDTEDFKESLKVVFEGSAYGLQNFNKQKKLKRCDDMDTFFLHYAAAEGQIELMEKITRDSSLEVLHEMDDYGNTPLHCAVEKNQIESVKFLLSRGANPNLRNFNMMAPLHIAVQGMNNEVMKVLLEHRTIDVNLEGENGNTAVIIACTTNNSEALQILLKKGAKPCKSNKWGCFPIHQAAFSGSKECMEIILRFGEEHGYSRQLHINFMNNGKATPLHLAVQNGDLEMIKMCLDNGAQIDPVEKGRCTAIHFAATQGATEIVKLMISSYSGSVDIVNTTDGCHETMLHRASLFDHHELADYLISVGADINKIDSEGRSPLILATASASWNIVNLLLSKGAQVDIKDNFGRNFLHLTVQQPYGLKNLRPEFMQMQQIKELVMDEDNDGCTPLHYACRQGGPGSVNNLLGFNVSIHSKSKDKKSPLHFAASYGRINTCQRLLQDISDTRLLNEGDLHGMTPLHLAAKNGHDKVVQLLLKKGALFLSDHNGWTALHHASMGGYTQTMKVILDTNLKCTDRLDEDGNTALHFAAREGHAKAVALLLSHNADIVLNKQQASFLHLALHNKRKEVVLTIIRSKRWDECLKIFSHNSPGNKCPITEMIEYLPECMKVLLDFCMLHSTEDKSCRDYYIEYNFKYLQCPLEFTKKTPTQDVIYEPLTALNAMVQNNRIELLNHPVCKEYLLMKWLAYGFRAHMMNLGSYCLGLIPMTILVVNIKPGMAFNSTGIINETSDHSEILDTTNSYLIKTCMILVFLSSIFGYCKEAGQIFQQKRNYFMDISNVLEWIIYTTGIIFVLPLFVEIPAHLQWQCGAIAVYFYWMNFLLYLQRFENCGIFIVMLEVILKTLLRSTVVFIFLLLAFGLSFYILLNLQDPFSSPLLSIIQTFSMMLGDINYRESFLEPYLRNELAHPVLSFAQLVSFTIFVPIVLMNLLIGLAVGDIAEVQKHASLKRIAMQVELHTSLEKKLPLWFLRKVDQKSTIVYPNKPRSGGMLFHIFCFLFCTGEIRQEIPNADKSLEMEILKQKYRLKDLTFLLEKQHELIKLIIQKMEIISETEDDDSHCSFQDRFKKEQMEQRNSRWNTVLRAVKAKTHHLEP
Sequence of UniProt Q16774 (whole entry, unmodified, looked up): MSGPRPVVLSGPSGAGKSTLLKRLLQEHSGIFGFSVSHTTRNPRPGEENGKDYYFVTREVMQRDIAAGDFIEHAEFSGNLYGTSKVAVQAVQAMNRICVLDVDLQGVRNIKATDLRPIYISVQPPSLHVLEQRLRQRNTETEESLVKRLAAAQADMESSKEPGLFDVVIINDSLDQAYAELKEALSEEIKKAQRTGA
Sequence of UniProt P51575 (whole entry, unmodified, looked up): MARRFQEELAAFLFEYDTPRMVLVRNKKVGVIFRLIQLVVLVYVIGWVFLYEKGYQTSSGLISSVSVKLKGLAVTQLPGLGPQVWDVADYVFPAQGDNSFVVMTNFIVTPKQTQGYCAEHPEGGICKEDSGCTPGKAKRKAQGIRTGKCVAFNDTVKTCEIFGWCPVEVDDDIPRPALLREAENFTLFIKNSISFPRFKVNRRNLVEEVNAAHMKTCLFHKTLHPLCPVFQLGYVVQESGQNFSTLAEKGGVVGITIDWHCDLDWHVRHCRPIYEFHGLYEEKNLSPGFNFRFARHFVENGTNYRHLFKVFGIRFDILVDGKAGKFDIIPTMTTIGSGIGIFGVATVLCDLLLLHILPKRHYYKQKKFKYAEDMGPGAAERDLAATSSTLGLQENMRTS
Sequence of UniProt Q9NYV8 (whole entry, unmodified, looked up): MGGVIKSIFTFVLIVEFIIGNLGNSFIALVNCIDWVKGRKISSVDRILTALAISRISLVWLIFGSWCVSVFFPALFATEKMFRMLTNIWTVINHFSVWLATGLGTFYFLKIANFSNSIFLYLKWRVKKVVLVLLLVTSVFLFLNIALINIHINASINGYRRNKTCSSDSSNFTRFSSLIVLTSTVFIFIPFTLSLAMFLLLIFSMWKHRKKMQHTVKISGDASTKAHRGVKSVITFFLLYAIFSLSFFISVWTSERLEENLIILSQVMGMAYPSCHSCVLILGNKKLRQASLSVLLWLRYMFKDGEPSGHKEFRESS
Sequence of UniProt Q96SW2 (whole entry, looked up): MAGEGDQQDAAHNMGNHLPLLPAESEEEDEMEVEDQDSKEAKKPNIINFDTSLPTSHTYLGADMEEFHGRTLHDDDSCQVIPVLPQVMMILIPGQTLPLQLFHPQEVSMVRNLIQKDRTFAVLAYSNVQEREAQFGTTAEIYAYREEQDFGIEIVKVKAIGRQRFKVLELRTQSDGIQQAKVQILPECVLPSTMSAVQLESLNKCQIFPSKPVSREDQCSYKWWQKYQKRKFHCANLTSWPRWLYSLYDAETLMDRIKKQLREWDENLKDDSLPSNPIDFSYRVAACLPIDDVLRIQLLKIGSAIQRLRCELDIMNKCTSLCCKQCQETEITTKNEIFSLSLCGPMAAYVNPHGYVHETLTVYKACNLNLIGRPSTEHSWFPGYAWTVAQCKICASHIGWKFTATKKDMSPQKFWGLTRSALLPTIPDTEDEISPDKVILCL
Sequence of UniProt P40337 (whole entry, looked up): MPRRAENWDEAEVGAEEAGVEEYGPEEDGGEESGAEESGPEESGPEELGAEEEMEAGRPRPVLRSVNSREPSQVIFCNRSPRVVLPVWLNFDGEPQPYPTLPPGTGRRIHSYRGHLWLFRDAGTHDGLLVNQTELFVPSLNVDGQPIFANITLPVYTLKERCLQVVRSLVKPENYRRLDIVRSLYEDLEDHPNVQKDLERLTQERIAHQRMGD

SMILES | target | assay | test system | conditions | scale | measurement | result
O=c1ccn([C@@H]2O[C@H](COP(=O)(O)OP(=O)(O)O)[C@@H](O)[C@H]2O)c(=O)[nH]1 | ABO (Homo sapiens, UniProt P16442, G235S/G268A/L266M/R176G) | ZZ-exchange NMR | – | free to compound-bound complex, together with: H-disaccharide | – | exchange rate constant | 2 ± 0.5 s⁻¹
CC1CCCN(C(=O)c2cc3ncccn3n2)C1 (centres unmarked) | FBXW7 (Homo sapiens, UniProt Q969H0) | binding, affinity selection mass spectrometry | – | – | reference: other proteins in batch | log fold enrichment | 0.0887
Nc1nc2c(ncn2[C@@H]2O[C@H](COP(=O)(O)O)[C@@H](O)[C@H]2O)c(=O)[nH]1 | GUK1 (Homo sapiens, UniProt Q16774, Y53A) | enzyme activity, NADH-coupled | – | 125 µM | – | reaction rate | 1.25 s⁻¹ and 1.08 s⁻¹ and 0.678 s⁻¹
CCNC(=O)/C=C/c1cccc(Br)c1 | SLC6A19 (Homo sapiens, UniProt Q695T7) | inhibitor, FLIPR membrane potential | CHO-BC cells | 0.3 µM, unit not given | reference: no inhibitor | remaining transport activity | 0.738
CCCC[C@@H]1NC(=O)[C@H](Cc2ccc(O)cc2)NC(=O)[C@@H]2CCCN2C(=O)[C@H](CC(N)=O)NC(=O)[C@H](C)NC(=O)[C@H](Cc2ccccc2)NC(=O)[C@@H]2CSCCC(=O)N3CN(CN(C3)C(=O)CCSC[C@H](NC(C)=O)C(=O)N[C@@H](CC(C)(C)C)C(=O)N3CCC[C@H]3C(=O)N[C@@H](CCC(=O)O)C(=O)N[C@H](CCCCNC(=O)CCc3cn(CCOCCOCCOCCOCCOCCC(=O)N[C@H]4CSCCC(=O)N5CN6CN(C5)C(=O)CCSC[C@H](NC(=O)[C@@H](CC(=O)O)NC(=O)[C@H](Cc5cccc7ccccc57)NC(=O)[C@@H]5CCCN5C4=O)C(=O)N[C@@H](CCSC)C(=O)N[C@@H](CCCCNC(=N)N)C(=O)N[C@@H](CC(=O)O)C(=O)N[C@@H](Cc4c[nH]c5ccccc45)C(=O)N[C@@H](CO)C(=O)N[C@@H]([C@@H](C)O)C(=O)N4CCC[C@H]4C(=O)N4C[C@H](O)C[C@H]4C(=O)N[C@@H](Cc4c[nH]c5ccccc45)C(=O)N[C@H](C(N)=O)CSCCC6=O)nn3)C(=O)N3CCC[C@H]3C(=O)N[C@@H](Cc3ccc(O)cc3)C(=O)N2)C(=O)CCSC[C@@H](C(N)=O)NC1=O | Tumor necrosis factor receptor superfamily member 9/Nectin-4 | reporter gene, agonist | HT-1376 coculture with reporter cells | – | reference: background | Emax | 5.1 fold
CC[C@H](C)C(=O)O[C@H]1C[C@H](O)C=C2C=C[C@H](C)[C@H](CC[C@@H](O)C[C@@H](O)CC(=O)O)[C@H]21 | NR4A1 | reporter gene, Gal4 hybrid reporter | – | 10 µM | reference: vehicle | activation | 0.91 fold
[Ca] | TRPA1 (Homo sapiens, UniProt O75762) | ion current, two-electrode voltage clamp | Xenopus oocytes | 100 µM, +80 mV, together with: extracellular Ca2+ | reference: current before Ca2+ addition | potentiation | 1.65 fold change and 1.43 fold change and 1.3 fold change and 1.12 fold change and 1.35 fold change
N#C[C@@]12C[C@@H]1[C@@H](n1cnc3c(N)nc(Cl)nc31)[C@H](O)[C@@H]2O | HTR2B (Homo sapiens, UniProt P41595) | radioligand binding | – | concentration not given, together with: [3H]LSD | – | binding affinity | inactive
C=CC(=O)N1CCC(COCC(=O)N2CCN(c3nc(-c4cnc(N)nc4C(F)F)nc(N4CCOC[C@@H]4C)n3)CC2)CC1 | PRKX (Homo sapiens, UniProt P51817) | KINOMEscan | – | 1 µM | – | remaining binding | 99%
O=S(=O)(O)O | GUK1 (Homo sapiens, UniProt Q16774) | enzyme activity, NADH-coupled | – | 5 mM, together with: ATP 1000 µM | – | reaction velocity | 0.108 µM/s and 0.104 µM/s and 0.0813 µM/s
O=C(C=Cc1ccccc1)Nc1cccc(-c2ccnc(N3CCC(CO)CC3)c2)c1 | NR4A1 | SPR | – | 10.0 µM | – | binding response | 93.8 RU
O=C(CCCc1ccccc1)C(=O)NCCc1ccc(Oc2ccc(C(F)(F)F)cn2)cc1 | Prolyl endopeptidase (Mus musculus, UniProt Q9QUR6) | inhibitor, item: PPCE | mouse, BAT cytosol proteome | 10 µM | reference: DMSO, lower = stronger inhibition | probe-enriched protein abundance | 115000 a.u.
Nc1ccc(S(=O)(=O)Nc2nnc(Cc3ccc(F)cc3)s2)cc1 | Glutathione hydrolase 1 proenzyme, without transmembrane domain (Homo sapiens, UniProt P19440) | GSH hydrolysis, uncompetitive inhibitor | – | 37 °C, binds gamma-glutamyl enzyme, together with: GSH 5-20 µM | – | Kii | 355 ± 16 µM
O=C1CCC(N2Cc3cc(Nc4noc5cc(F)ccc45)ccc3C2=O)C(=O)N1 (centres unmarked) | Cereblon/Casein kinase I alpha (CSNK1A1/CRBN, Homo sapiens, UniProt P48729+Q96SW2) | degrader, live-cell HiBiT kinetic | HEK293 LgBiT | 10 µM | – | degradation rate constant | 3.5 h⁻¹
COc1cc(CNC(=O)CCCC/C=C/C(C)C)ccc1O | TRPV1 | channel gating, single-channel inside-out patch | – | 100 nM, component 3 of four | – | open time constant | 57.4 ms
COc1cccc(OC[C@H]2CN(CCN3CCc4ccccc43)CCO2)c1 | HTR5A (Homo sapiens, UniProt P47898) | radioligand binding | – | concentration not given, together with: [3H]LSD | – | inhibition | -8.5%
N=C(N)NCCC[C@H](N)C(=O)O | uncharacterized protein (Pelagibacter ubique, UniProt Q4FLC2) | binding, isothermal titration calorimetry | Candidatus Pelagibacter ubique | two-sets-of-sites model, site 1, together with: E108A mutant competing protein | – | Ka | 2.71e+10 M⁻¹ and 5.28e+10 M⁻¹ and 3.09e+10 M⁻¹
O=C(O)c1ccc(Nc2ncc3c(n2)-c2ccc(Cl)cc2C(c2c(F)cccc2F)=NC3)cc1 | PKG1α(h) | kinase activity | – | 1 µM | – | remaining activity | 103%

SMILES | target | assay | test system | conditions | scale | measurement | result
NCCCC(=O)O | SLC6A6 (Homo sapiens, UniProt P31641, Y138A) | binding, microscale thermophoresis | – | 250 µM, room temperature, together with: 50 nM labelled protein | higher = more binding | normalised MST signal | -0.0169
O=C(Nc1ccccc1OS(=O)(=O)c1cccs1)c1ccc2ncccc2c1 | P2X purinoceptor 2 (P2RX2, Homo sapiens, UniProt Q9UBL9) | calcium mobilization | MCF7 stably transfected | 100 µM, together with: ATP 100 µM | – | fluorescence increase | 63.3 ± 3.67%
O=C1CCC(N2Cc3cc(CNC(=O)C(F)(F)c4ccc(Cl)cc4)ccc3C2=O)C(=O)N1 (centres unmarked) | GSPT1/CRBN, 300-496; with DDB1 (Homo sapiens, UniProt P15170+Q96SW2) | degrader, AlphaLISA | – | 10 µM | reference: reference compound | ternary complex formation | 100%
CC(=O)N[C@H](C(=O)N1C[C@H](O)C[C@H]1C(=O)NCc1ccc(-c2scnc2C)cc1)C(C)(C)SCCCCCCNC(=O)C[C@@H]1N=C(c2ccc(Cl)cc2)c2c(sc(C)c2C)-n2c(C)nnc21 | VHL/BRD3, BD2; with Elongin B/C (Homo sapiens, UniProt P40337+Q15059) | ITC | – | 25 °C, PROTAC:Brd3^BD2 | reference: Kd binary over Kd ternary | cooperativity | 4.3
Nc1ncnc2c1ncn2[C@@H]1O[C@H](COP(=O)(O)OP(=O)(O)OP(=O)(O)O)[C@@H](O)[C@H]1O | DNA-directed RNA polymerase subunit beta' / DNA-directed RNA polymerase subunit beta (rpoC/rpoB, Escherichia coli, UniProt P0A8T7+P0A8V2) | stopped-flow 2-aminopurine fluorescence | – | elongation complex i+2→i+1 | – | translocation rate constant | 96 ± 12 s⁻¹
Cl.[2H]C([2H])([2H])CC(=O)c1cnc(NC(=O)C2CC2)cc1Nc1cccc(-c2ncn(C([2H])([2H])[2H])n2)c1OC | TYK2 (Homo sapiens, UniProt P29597) | IFNα-induced STAT1 phosphorylation, flow cytometry | human, whole blood T cells | concentration not given, after last dose day 14, together with: IFN-alpha | – | time to return to baseline | 24 to 48 h
O=c1nc(SCc2cc(F)cc(C(F)(F)F)c2)nc(SCc2ccc3sccc3c2)[nH]1 | TOP2A (Homo sapiens, UniProt P11388) | decatenation | – | 31.25 µM, replicate 2 | – | decatenated DNA | 0%
O=C(O)c1ccccc1Nc1cccc(C(F)(F)F)c1 | TAS2R14 (Homo sapiens, UniProt Q9NYV8) | G-protein dissociation, TRUPATH gustducin BRET | – | 10 µM, wild-type receptor, unit not given | reference: vehicle | ΔBRET | -0.00927 and -0.0284 and -0.0101 and -0.0325 and -0.0563 and -0.029 and -0.0438
Oc1ccccc1-c1n[nH]cc1-c1ccnc2ccccc12 | Mitogen-activated protein kinase HOG1 (HOG1, Candida albicans, UniProt Q92207) | kinase binding, MIB/MS competition | Candida albicans lysate | 1 µM | reference: DMSO, negative = stronger binding | log2 fold change | -0.11
Nc1ncnc2c1ncn2[C@@H]1O[C@H](COP(=O)(O)CP(=O)(O)OP(=O)(O)O)[C@@H](O)[C@H]1O | P2X purinoceptor 1 (P2RX1, Homo sapiens, UniProt P51575, E282A) | calcium influx | – | 1 µM | reference: ionomycin response | calcium influx | 94.9% and 72.7% and 78%
CCC1(O)CCCN(C(=O)c2ccc(-c3ccc(F)c(NC(=O)CCl)c3)cc2)C1 (centres unmarked) | DNA dC->dU-editing enzyme APOBEC-3B, C-terminal domain (Homo sapiens, UniProt Q9UH17) | covalent modifier, intact protein mass spectrometry, item: adduct +26104 Da | – | 500 µM, 3 h, 20-fold molar excess | – | protein adduct | 25%
Nc1ncnc2c1ncn2[C@@H]1O[C@H](COP(=O)(O)OP(=O)(O)O)[C@@H](O)[C@H]1O | T1, ssDNA, aptamer | ITC | – | – | – | Kd | 19.6 µM
CCCC[C@@H]1NC(=O)[C@H](Cc2ccc(O)cc2)NC(=O)[C@@H]2CCCN2C(=O)[C@H](CC(=O)O)NC(=O)[C@H](C)NC(=O)[C@H](Cc2ccccc2)NC(=O)[C@@H]2CSCCC(=O)N3CN(CN(C3)C(=O)CCSC[C@@H](C(=O)N[C@@H](C)C(N)=O)NC1=O)C(=O)CCSC[C@H](NC(C)=O)C(=O)N[C@@H](CC(C)(C)C)C(=O)N1CCC[C@H]1C(=O)N[C@@H](CCCCNC(=O)CCc1cn(CCOCCOCCOCCOCCOCCC(=O)N[C@H]3CSCCC(=O)N4CN5CN(C4)C(=O)CCSC[C@H](NC(=O)[C@@H](CC(=O)O)NC(=O)[C@H](Cc4cccc6ccccc46)NC(=O)[C@@H]4CCCN4C3=O)C(=O)N[C@@H](CCSC)C(=O)N[C@@H](CCCCNC(=N)N)C(=O)N[C@@H](CC(=O)O)C(=O)N[C@@H](Cc3c[nH]c4ccccc34)C(=O)N[C@@H](CO)C(=O)N[C@@H]([C@@H](C)O)C(=O)N3CCC[C@H]3C(=O)N3C[C@H](O)C[C@H]3C(=O)N[C@@H](Cc3c[nH]c4ccccc34)C(=O)N[C@H](C(N)=O)CSCCC5=O)nn1)C(=O)N[C@H](C)C(=O)N1CCC[C@H]1C(=O)N[C@@H](Cc1ccc(O)cc1)C(=O)N2 | Tumor necrosis factor receptor superfamily member 9/Nectin-4 | reporter gene, agonist | HT-1376 coculture with reporter cells | – | reference: background | Emax | 37 fold
[O-][S+]1CCCCS1 (centres unmarked) | SOD1 (Homo sapiens, UniProt P00441, G94A) | LC-MS | human whole blood | 1000 µM, 1 h, 37 °C | – | SOD1 monomer fraction | 22.7%
COc1cc(CNC(=O)CCCC/C=C/C(C)C)ccc1O | TRPV1 | channel activation, FLIPR calcium | HEK293T | 0.247 µM | higher = more activation | calcium response | 17.9 a.u. and 15.8 a.u. and 11.6 a.u. and 11.8 a.u.
CCN1CCN(c2cc(N3CCN(CC)CC3)nc(NCCNc3ccnc4cc(Cl)ccc34)n2)CC1 | NR4A1 | reporter gene, Gal4 hybrid reporter | – | 1 µM | reference: vehicle | activation | 0.95 ± 0.21 fold
C#CCCOC(=O)[C@]1(C)C=C(C(=O)OC(C)(C)C)C(=O)CC1 | MAPK8 (Homo sapiens, UniProt P45983) | D-peptide binding, inhibitor, FP peptide displacement | – | 6.25 µM | lower is stronger displacement | fraction bound | 0.639

Repeated from above:
SMILES | target | assay | test system | conditions | scale | measurement | result
O=C(CCCc1ccccc1)C(=O)NCCc1ccc(Oc2ccc(C(F)(F)F)cn2)cc1 | Prolyl endopeptidase (Mus musculus, UniProt Q9QUR6) | inhibitor, item: PPCE | mouse, BAT cytosol proteome | 10 µM | reference: DMSO, lower = stronger inhibition | probe-enriched protein abundance | 115000 a.u.
O=c1ccn([C@@H]2O[C@H](COP(=O)(O)OP(=O)(O)O)[C@@H](O)[C@H]2O)c(=O)[nH]1 | ABO (Homo sapiens, UniProt P16442, G235S/G268A/L266M/R176G) | ZZ-exchange NMR | – | free to compound-bound complex, together with: H-disaccharide | – | exchange rate constant | 2 ± 0.5 s⁻¹
